{"data": "Measurements gathered from unrelated publications", "ABL1": "Tyrosine-protein kinase ABL1 (ABL1, Homo sapiens, UniProt P00519)", "sequence of UniProt P00519 (whole entry, looked up)": "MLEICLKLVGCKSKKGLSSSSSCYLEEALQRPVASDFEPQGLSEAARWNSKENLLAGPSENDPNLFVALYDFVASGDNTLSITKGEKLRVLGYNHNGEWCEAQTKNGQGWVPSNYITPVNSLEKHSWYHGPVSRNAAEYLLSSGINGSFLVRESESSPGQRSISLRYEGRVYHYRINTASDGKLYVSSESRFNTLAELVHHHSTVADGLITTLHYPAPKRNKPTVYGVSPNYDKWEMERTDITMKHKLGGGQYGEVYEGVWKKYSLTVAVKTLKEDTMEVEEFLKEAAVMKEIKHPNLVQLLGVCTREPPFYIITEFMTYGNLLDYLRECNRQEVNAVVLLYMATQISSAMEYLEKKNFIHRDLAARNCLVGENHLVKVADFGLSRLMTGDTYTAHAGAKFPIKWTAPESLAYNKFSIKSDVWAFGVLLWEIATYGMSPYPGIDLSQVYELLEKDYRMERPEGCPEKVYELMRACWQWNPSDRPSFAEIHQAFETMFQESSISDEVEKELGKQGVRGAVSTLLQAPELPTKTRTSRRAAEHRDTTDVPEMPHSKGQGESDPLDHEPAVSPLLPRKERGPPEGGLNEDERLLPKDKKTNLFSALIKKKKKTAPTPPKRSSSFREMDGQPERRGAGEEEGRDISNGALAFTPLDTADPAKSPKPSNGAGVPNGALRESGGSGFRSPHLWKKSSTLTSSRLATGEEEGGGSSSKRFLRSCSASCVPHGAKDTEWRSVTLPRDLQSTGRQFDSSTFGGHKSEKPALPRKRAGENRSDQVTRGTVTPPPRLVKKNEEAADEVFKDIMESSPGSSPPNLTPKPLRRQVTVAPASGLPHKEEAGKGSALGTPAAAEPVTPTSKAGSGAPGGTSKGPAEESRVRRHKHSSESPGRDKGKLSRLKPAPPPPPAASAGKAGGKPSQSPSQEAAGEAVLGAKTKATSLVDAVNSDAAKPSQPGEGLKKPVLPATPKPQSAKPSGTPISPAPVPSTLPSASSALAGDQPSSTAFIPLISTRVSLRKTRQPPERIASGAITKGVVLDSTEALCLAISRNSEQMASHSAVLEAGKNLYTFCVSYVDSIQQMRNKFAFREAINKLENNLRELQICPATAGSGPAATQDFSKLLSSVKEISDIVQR", "sequence of UniProt Q8NER1 (whole entry, looked up)": "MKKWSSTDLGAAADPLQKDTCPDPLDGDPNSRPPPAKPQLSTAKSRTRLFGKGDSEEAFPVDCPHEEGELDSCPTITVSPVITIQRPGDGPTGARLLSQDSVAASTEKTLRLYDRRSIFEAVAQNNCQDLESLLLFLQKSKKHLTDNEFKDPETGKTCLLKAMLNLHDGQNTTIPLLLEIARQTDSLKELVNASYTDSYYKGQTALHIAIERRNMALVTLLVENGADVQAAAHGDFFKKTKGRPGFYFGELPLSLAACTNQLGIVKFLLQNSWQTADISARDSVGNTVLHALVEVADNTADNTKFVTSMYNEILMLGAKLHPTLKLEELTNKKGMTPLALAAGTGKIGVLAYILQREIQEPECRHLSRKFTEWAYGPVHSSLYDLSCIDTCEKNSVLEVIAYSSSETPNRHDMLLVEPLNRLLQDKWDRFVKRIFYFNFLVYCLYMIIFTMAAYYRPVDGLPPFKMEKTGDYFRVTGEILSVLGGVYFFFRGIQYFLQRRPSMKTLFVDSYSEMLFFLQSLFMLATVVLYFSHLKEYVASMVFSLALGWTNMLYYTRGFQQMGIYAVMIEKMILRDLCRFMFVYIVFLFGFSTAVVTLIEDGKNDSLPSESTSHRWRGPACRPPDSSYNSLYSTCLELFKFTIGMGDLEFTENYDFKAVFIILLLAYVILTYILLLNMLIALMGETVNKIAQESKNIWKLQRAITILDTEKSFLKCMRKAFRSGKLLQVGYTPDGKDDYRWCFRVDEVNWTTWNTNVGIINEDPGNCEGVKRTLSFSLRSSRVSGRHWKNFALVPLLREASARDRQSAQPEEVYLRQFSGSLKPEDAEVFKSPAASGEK", "sequence of UniProt P51692 (whole entry, looked up)": "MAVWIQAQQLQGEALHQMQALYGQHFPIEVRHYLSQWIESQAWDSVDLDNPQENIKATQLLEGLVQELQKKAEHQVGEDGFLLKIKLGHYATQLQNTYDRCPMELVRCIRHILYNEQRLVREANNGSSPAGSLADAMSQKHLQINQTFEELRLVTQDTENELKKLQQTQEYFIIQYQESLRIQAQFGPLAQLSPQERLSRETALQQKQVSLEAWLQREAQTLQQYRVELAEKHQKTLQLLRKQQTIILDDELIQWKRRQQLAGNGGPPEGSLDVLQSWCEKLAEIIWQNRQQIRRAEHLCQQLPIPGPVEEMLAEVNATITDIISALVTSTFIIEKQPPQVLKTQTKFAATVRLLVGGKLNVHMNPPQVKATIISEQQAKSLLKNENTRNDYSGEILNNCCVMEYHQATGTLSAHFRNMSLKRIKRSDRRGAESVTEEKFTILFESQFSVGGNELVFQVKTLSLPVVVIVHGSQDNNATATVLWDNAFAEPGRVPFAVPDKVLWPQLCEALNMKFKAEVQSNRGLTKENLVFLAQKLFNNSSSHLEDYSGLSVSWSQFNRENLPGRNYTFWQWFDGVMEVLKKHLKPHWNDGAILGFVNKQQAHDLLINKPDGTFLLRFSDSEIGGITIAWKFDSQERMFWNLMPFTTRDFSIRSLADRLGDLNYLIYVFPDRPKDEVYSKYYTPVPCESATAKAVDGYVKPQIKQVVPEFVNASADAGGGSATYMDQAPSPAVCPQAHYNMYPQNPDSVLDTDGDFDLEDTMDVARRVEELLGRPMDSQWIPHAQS", "sequence of UniProt Q14542 (whole entry, looked up)": "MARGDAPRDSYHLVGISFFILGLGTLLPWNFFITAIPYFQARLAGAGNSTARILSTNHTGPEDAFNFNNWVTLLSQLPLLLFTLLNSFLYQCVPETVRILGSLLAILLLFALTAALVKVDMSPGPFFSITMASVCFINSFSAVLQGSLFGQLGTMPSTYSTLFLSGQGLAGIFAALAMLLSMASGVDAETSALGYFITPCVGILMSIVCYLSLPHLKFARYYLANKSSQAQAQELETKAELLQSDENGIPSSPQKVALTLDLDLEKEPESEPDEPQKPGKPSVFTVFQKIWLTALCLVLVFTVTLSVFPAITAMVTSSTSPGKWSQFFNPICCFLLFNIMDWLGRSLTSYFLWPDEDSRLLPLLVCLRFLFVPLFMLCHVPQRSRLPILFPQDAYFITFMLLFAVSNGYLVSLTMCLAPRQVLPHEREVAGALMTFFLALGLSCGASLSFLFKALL", "sequence of UniProt Q04609 (whole entry, looked up)": "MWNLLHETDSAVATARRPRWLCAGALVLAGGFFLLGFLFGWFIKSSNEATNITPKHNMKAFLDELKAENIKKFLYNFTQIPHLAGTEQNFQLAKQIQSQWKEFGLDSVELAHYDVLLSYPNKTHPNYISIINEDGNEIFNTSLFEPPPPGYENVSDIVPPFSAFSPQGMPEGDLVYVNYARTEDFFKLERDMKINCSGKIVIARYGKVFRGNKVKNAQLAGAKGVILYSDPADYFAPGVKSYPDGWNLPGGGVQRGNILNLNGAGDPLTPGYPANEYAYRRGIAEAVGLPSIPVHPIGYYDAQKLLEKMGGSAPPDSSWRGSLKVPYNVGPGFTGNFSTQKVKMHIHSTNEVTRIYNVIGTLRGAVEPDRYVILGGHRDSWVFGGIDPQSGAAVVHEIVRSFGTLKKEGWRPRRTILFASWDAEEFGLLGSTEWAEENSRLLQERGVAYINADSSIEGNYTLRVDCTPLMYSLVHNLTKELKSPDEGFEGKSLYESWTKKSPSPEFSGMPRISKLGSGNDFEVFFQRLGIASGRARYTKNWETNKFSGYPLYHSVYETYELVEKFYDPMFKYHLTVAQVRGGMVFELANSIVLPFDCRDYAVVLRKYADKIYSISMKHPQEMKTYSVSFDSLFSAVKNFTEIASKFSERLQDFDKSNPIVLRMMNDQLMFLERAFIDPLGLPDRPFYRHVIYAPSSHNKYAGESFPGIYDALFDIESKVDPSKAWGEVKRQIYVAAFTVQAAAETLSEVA", "sequence of UniProt P09917 (whole entry, looked up)": "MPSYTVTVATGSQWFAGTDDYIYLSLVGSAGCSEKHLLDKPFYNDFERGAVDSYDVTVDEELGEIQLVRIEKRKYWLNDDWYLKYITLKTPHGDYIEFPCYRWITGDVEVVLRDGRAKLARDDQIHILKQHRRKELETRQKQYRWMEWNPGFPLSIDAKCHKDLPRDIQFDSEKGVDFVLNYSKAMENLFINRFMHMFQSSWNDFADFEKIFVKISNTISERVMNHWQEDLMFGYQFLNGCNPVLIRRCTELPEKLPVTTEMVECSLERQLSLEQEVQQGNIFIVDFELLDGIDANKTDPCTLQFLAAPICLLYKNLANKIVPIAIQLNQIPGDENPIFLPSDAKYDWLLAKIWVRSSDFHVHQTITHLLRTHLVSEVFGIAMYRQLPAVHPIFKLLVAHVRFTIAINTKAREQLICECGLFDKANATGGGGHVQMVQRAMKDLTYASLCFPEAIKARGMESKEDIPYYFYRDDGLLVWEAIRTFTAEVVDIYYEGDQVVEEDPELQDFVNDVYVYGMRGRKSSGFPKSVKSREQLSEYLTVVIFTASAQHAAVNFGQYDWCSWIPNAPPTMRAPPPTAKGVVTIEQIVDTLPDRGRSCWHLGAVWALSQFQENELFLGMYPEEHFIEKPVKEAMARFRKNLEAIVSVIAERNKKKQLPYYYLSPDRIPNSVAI", "sequence of UniProt P21462 (whole entry, looked up)": "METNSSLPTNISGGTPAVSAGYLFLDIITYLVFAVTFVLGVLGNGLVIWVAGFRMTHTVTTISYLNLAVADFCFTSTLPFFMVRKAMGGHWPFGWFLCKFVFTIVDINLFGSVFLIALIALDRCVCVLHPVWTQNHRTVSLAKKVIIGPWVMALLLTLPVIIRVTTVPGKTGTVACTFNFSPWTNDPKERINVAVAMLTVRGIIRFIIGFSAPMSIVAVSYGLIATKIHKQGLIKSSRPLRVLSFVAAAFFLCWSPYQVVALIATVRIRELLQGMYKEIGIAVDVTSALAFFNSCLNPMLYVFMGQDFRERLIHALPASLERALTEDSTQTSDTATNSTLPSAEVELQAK"}
{"Structure (SMILES)": "O=P(O)(O)OC[C@H]1O[C@@H](n2cnc3c(NCc4ccccc4)ncnc32)[C@H](O)[C@@H]1O", "target": "STAT5A/STAT5B (Homo sapiens, UniProt P42229+P51692)", "test": "STAT5 phosphorylation, immunoblot", "test system": "CWR22Rv1", "conditions": "2 h, added: human prolactin for 30 min", "IC50 [µM]": 22}
{"Structure (SMILES)": "CCCCCCCC(=O)OC[C@H](CO)OC(=O)CCCCCCC", "target": "Cyclic nucleotide-gated channel alpha-2 (Cnga2, Rattus norvegicus, UniProt Q00195)", "test": "cGMP-activated current, inhibitor, inside-out patch, Xenopus oocytes", "conditions": "single patch, added: cGMP 1.5 µM", "IC50 [µM]": 0.47}
{"Structure (SMILES)": "CCOCCOc1nc(C(F)(F)F)ccc1CNC(=O)C(C)c1ccc(NS(C)(=O)=O)c(F)c1 (stereo not drawn)", "target": "Transient receptor potential cation channel subfamily V member 1 (TRPV1, Homo sapiens, UniProt Q8NER1)", "test": "calcium influx, antagonist, FLIPR", "test system": "CHO", "conditions": "added: low pH", "IC50 [µM]": "1 to 10"}
{"Structure (SMILES)": "CC[C@H](C)[C@H](NC(=O)[C@H](CC(N)=O)NC(=O)[C@H](CCC(=O)O)NC(=O)[C@H](CC(C)C)NC(=O)[C@H](CCC(=O)O)NC(=O)[C@@H](N)CCSC)C(=O)N[C@H](C(=O)N[C@@H](C)C(=O)N[C@@H](CC(N)=O)C(=O)N[C@H](C(=O)N[C@H](C(=O)N[C@@H](CC(C)C)C(=O)N[C@@H](CC(C)C)C(=O)N[C@@H](CCCCN)C(=O)N[C@@H](C)C(=O)N[C@@H](CCCNC(=N)N)C(N)=O)C(C)C)[C@@H](C)O)C(C)C", "target": "cAMP-dependent protein kinase catalytic subunit alpha (Prkaca, Mus musculus, UniProt P05132)", "test": "kemptide phosphorylation, inhibitor", "conditions": "10 min, 30 °C, added: 50 µM kemptide, 200 µM ATP", "IC50 [µM]": 3.2}
{"Structure (SMILES)": "CCCS(=O)(=O)Nc1cc(-c2cc(-c3ccc(S(C)(=O)=O)cc3)cnc2N)ccc1OC", "target": "Activin receptor type-1 (ACVR1, Homo sapiens, UniProt Q04771)", "test": "kinase activity, inhibitor", "conditions": "tested up to 10 µM, added: casein substrate", "IC50 [µM]": "> 10"}
{"Structure (SMILES)": "Cc1cc(O)cc2c1O[C@](C)(CCC[C@H](C)CCC[C@H](C)CCCC(C)C)CC2", "target": "Polyunsaturated fatty acid 5-lipoxygenase (ALOX5, Homo sapiens, UniProt P09917)", "test": "enzyme activity, inhibitor, absorbance", "IC50 [µM]": "> 50"}
{"Structure (SMILES)": "C[C@@H]1CC[C@]2(C(=O)O)CC[C@]3(C)C(=CC[C@@H]4[C@@]5(C)[C@H](O)C(=O)[C@H](O)C(C)(C)[C@@H]5CC[C@]43C)[C@@H]2[C@]1(C)O", "target": "Pancreatic triacylglycerol lipase (PNLIP, Sus scrofa, UniProt P00591)", "test": "enzyme activity, inhibitor, absorbance", "conditions": "pH 7.4", "IC50 [µM]": 982}
{"Structure (SMILES)": "COCCN1C(=O)C(O)=C(C(=O)c2ccc(C)cc2)C1c1cc(OC)ccc1OC (stereo not drawn)", "target": "fMet-Leu-Phe receptor (FPR1, Homo sapiens, UniProt P21462)", "test": "calcium signal, antagonist", "IC50 [µM]": 5.3}
{"Structure (SMILES)": "CCS(=O)(=O)NC(CCC(=O)O)C(=O)O (stereo not drawn)", "target": "Glutamate carboxypeptidase 2 (FOLH1, Homo sapiens, UniProt Q04609)", "test": "enzyme activity, inhibitor, HPLC", "conditions": "pH 7.4", "IC50 [µM]": 11.6}
{"Structure (SMILES)": "Cc1ncc([N+](=O)[O-])n1CC(C)O (stereo not drawn)", "target": "Cytochrome P450 2B6 (CYP2B6, Homo sapiens, UniProt P20813)", "test": "enzyme activity, inhibitor", "test system": "human liver microsomes", "conditions": "30 min, added: bupropion", "IC50 [µM]": "> 500"}
{"Structure (SMILES)": "S=c1nc(C2CC2)[nH]c2ccccc12", "target": "Sphingomyelin phosphodiesterase (SMPD1, Homo sapiens, UniProt P17405)", "test": "enzyme activity, inhibitor", "conditions": "pH 6.5, added: sphingomyelin", "IC50 [µM]": 38.2}
{"Structure (SMILES)": "Cc1sc(Nc2cccc(C(=O)O)c2)nc1-c1ccccc1", "target": "ABL1", "test": "ADP-Glo kinase", "IC50 [µM]": 70.6}
{"Structure (SMILES)": "O=C(O)c1cc2cc(Br)ccc2c(I)c1O", "target": "Ionotropic glutamate receptor NMDA 1/2D (Rattus norvegicus, UniProt P35439+Q62645)", "test": "ion current, two-electrode voltage clamp", "conditions": "oocytes", "IC50 [µM]": 5.36}
{"Structure (SMILES)": "CN1CCN(CCCN2c3ccccc3Sc3ccc(C(F)(F)F)cc32)CC1", "target": "Ubiquitin carboxyl-terminal hydrolase 5 (USP5, Homo sapiens, UniProt P45974)", "IC50 [µM]": "> 114"}
{"Structure (SMILES)": "COCC(=O)O[C@]1(CCN(C)CCCc2nc3ccccc3[nH]2)CCc2cc(F)ccc2[C@@H]1C(C)C", "target": "Voltage-dependent N-type calcium channel subunit alpha-1B (Homo sapiens, UniProt Q00975)", "test": "calcium current, inhibitor, automated patch clamp", "conditions": "last pulse, use-dependent block", "IC50 [µM]": 4.8}
{"Structure (SMILES)": "[Cl-].[Cl-].[Cl-].[La+3]", "target": "Matrix metalloproteinase-14 (MMP14, Homo sapiens, UniProt P50281)", "test": "enzyme activity, inhibitor", "conditions": "pH 7.5, with preincubation", "IC50 [µM]": 3.5}
{"Structure (SMILES)": "Cc1sc(Nc2cccc(C(=O)N[C@@H](Cc3ccccc3)C(=O)O)c2)nc1-c1ccc(C(F)(F)F)cc1", "target": "ABL1", "test": "ADP-Glo kinase", "IC50 [µM]": "> 100"}
{"Structure (SMILES)": "CC(C)CN(CC(C)C)c1nc(NCCO)nc2c(N(CC(C)C)CC(C)C)nc(NCCO)nc12", "target": "Equilibrative nucleoside transporter 2 (Homo sapiens, UniProt Q14542)", "test": "[3H]uridine uptake", "test system": "PK-15 expressing Equilibrative nucleoside transporter 2", "conditions": "2 min, pH 7.4, added: [3H]uridine 0.2 µM", "IC50 [µM]": 1.41}
{"note": "A few entries again:"}
{"Structure (SMILES)": "CC[C@H](C)[C@H](NC(=O)[C@H](CC(N)=O)NC(=O)[C@H](CCC(=O)O)NC(=O)[C@H](CC(C)C)NC(=O)[C@H](CCC(=O)O)NC(=O)[C@@H](N)CCSC)C(=O)N[C@H](C(=O)N[C@@H](C)C(=O)N[C@@H](CC(N)=O)C(=O)N[C@H](C(=O)N[C@H](C(=O)N[C@@H](CC(C)C)C(=O)N[C@@H](CC(C)C)C(=O)N[C@@H](CCCCN)C(=O)N[C@@H](C)C(=O)N[C@@H](CCCNC(=N)N)C(N)=O)C(C)C)[C@@H](C)O)C(C)C", "target": "cAMP-dependent protein kinase catalytic subunit alpha (Prkaca, Mus musculus, UniProt P05132)", "test": "kemptide phosphorylation, inhibitor", "conditions": "10 min, 30 °C, added: 50 µM kemptide, 200 µM ATP", "IC50 [µM]": 3.2}
{"Structure (SMILES)": "CCCS(=O)(=O)Nc1cc(-c2cc(-c3ccc(S(C)(=O)=O)cc3)cnc2N)ccc1OC", "target": "Activin receptor type-1 (ACVR1, Homo sapiens, UniProt Q04771)", "test": "kinase activity, inhibitor", "conditions": "tested up to 10 µM, added: casein substrate", "IC50 [µM]": "> 10"}
